Measurements collected from several papers.
Compare with care: the assays were run in different laboratories. Several values in a cell are separate wells, animals, samples, runs or records. ± marks the error that the study gave.
Sequence of UniProt Q9UHI6 (whole entry, looked up): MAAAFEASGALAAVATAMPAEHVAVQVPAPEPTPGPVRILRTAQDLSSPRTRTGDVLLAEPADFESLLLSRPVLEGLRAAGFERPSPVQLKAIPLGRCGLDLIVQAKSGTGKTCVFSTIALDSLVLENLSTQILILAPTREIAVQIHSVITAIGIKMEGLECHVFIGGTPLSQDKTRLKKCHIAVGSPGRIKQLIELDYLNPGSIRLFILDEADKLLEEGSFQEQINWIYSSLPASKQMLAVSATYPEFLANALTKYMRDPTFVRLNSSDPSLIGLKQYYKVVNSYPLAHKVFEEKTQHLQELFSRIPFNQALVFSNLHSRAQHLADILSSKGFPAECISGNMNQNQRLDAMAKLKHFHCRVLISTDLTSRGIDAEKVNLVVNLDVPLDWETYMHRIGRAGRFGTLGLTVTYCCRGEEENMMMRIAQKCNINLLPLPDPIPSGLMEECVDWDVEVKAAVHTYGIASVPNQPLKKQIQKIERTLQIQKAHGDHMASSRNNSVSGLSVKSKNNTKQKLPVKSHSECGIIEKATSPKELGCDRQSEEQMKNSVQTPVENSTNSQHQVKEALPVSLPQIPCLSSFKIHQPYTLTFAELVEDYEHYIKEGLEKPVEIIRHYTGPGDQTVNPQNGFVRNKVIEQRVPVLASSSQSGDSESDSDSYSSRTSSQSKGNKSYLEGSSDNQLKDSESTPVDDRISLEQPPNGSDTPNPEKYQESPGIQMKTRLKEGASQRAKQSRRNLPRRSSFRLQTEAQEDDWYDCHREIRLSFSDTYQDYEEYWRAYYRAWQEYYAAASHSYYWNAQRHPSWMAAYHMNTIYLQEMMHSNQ

| Compound | tested on | test | test system | conditions | scale | endpoint | result |
| --- | --- | --- | --- | --- | --- | --- | --- |
| C=CCN1CC[C@]23c4c5ccc(O)c4O[C@H]2C(=O)CC[C@@]3(O)[C@H]1C5 | – | formalin test | male ICR-CD1 mice | sc, 5 mg/kg, 25 to 30 min | – | paw licking time | 38 s and 59 s and 48 s and 67 s |
| CC(=O)Nc1nc(C)c(-c2ccc(Cl)c(S(=O)(=O)NCCO)c2)s1 | human coronavirus OC43 | virus-induced cell killing | MRC-5 | maximum over 10 doses | – | maximum inhibition | 0% |
| CC(C)=CCN1CC[C@]2(C)c3cc(O)ccc3C[C@H]1[C@H]2C | – | self-administration | male Sprague-Dawley rat | intravenous | – | dose with highest response rate | 0.32 mg/kg/injection |
| CC(C)C[C@H](CN)CC(=O)O | – | whole-cell current clamp | DRG neurons, rat, spinal cord injury | 10 µM, overnight, added: nimodipine 5 µM | – | action potential threshold | -46.1 mV and -26.9 mV and -38.3 mV and -39.8 mV and -36 mV and -30.7 mV |
| C=CCNCCc1c[nH]c2cccc(O)c12.C=CCNCCc1c[nH]c2cccc(O)c12.O=C(O)/C=C/C(=O)O | – | – | C57BL/6J mice | subcutaneous, 0.1 mg/kg | reference: pre-session baseline | body temperature change | -0.1 ± 0.1 °C |
| CCCC(C(=O)c1ccc2c(c1)OCO2)N1CCCC1.Cl (racemic) | – | HPLC-ECD | rat, striatum postmortem | dose not given, 40 and 240 min | – | 5-HIAA level | no effect |
| CN1CC[C@]23c4c5ccc(O)c4O[C@H]2[C@@H](O)C=C[C@H]3[C@H]1C5 | – | antinociception, tail-flick hot water latency | Sprague-Dawley rat | intraperitoneal, normal rats | – | ED50 | 3.41 mg/kg |
| O=C(O)/C=C/C(=O)O.Oc1cccc2[nH]cc(CCNC3CCCCC3)c12 | – | – | C57BL/6J mice | subcutaneous, 1 mg/kg | reference: pre-session baseline | body temperature change | 0.2 ± 0.1 °C |
| C[C@H]1CN(c2n[nH]c3nc(N[C@H]4CC[C@H](NS(=O)(=O)CCC(F)(F)F)CC4)ncc23)CCO1 | DDX20 (Homo sapiens, UniProt Q9UHI6) | biochemical | – | – | – | IC50 | ≥ 20 µM |
| CCCCNCCc1c[nH]c2cccc(O)c12.O=C(O)/C=C/C(=O)O | – | – | C57BL/6J mice | subcutaneous, 10 mg/kg | reference: pre-session baseline | body temperature change | -0.4 ± 0.2 °C |
| CN1CC[C@]23c4c5ccc(O)c4O[C@H]2[C@@H](OS(=O)(=O)O)C=C[C@H]3[C@H]1C5 | – | antinociception, tail-flick hot water latency | Sprague-Dawley rat | intraperitoneal, normal rats | – | ED50 | 0.82 mg/kg |
| COc1ccc2[nH]cc(CCN(C)C)c2c1 | – | DOM stimulus generalization | rat trained on DOM | intraperitoneal, training dose 1.0 mg/kg DOM | – | ED50 | 2.79 µmol/kg |
| COc1ccc(C(CN(C)C)C2(O)CCCCC2)cc1 (stereo not shown) | human coronavirus OC43 | virus-induced cell killing | MRC-5 | screen | – | maximum inhibition | 20.6% |
| C#CCN(C)[C@H](C)Cc1ccccc1 | – | HPLC-ECD | MPTP mouse model, striatum | 10 mg/kg | – | striatal HVA content | 0.566 ng/mg tissue and 1.21 ng/mg tissue and 0.609 ng/mg tissue and 0.732 ng/mg tissue and 1 ng/mg tissue and 0.662 ng/mg tissue and 1.26 ng/mg tissue |
| COc1cc(CC(C)N)c(OC)cc1C.Cl (racemic) | – | stimulus generalization, drug discrimination | Sprague-Dawley rat | i.p., added: trained on 1.0 mg/kg compound vs saline | – | ED50 | 1.25 µmol/kg |
| CC(C)(C)NCCc1c[nH]c2cccc(O)c12.CC(C)(C)NCCc1c[nH]c2cccc(O)c12.O=C(O)/C=C/C(=O)O | – | – | C57BL/6J mice | subcutaneous, 1 mg/kg | reference: pre-session baseline | body temperature change | 0.1 ± 0.2 °C |
| C[C@]12CC[C@H]3[C@@H](CC=C4CC(O)CC[C@@]43CO)[C@@H]1CCC2O (stereo partly shown) | – | – | GAN diet MASH rats | ip, 20 mg/kg, two weeks | reference: GAN vehicle | plasma insulin level | decreased |
| CCCNCCc1c[nH]c2cccc(O)c12.CCCNCCc1c[nH]c2cccc(O)c12.O=C(O)/C=C/C(=O)O | – | – | C57BL/6J mice | subcutaneous, 0.03 mg/kg | reference: pre-session baseline | body temperature change | -0.4 ± 0.2 °C |
| Cc1ccc(C(=O)N[C@H]2CC[C@@]3(O)[C@H]4Cc5ccc(O)c6c5[C@@]3(CCN4CC3CC3)[C@H]2O6)s1.Cl | – | antagonist, warm-water tail immersion | Swiss Webster mouse | subcutaneous, added: morphine 10 mg/kg s.c. | – | AD50 | 1.64 mg/kg |

Excerpt of the above:
| Compound | tested on | test | test system | conditions | scale | endpoint | result |
| --- | --- | --- | --- | --- | --- | --- | --- |
| CC(C)(C)NCCc1c[nH]c2cccc(O)c12.CC(C)(C)NCCc1c[nH]c2cccc(O)c12.O=C(O)/C=C/C(=O)O | – | – | C57BL/6J mice | subcutaneous, 1 mg/kg | reference: pre-session baseline | body temperature change | 0.1 ± 0.2 °C |
| CCCCNCCc1c[nH]c2cccc(O)c12.O=C(O)/C=C/C(=O)O | – | – | C57BL/6J mice | subcutaneous, 10 mg/kg | reference: pre-session baseline | body temperature change | -0.4 ± 0.2 °C |
| CN1CC[C@]23c4c5ccc(O)c4O[C@H]2[C@@H](O)C=C[C@H]3[C@H]1C5 | – | antinociception, tail-flick hot water latency | Sprague-Dawley rat | intraperitoneal, normal rats | – | ED50 | 3.41 mg/kg |
